# Assay results of several laboratories.
# Protocols differ between the studies behind these lines. ± gives the spread as reported.
# GBA1 R534H: Lysosomal acid glucosylceramidase (GBA1, Homo sapiens, UniProt P04062, R534H)
# Sequence of UniProt P04062 (whole entry, unmodified, looked up): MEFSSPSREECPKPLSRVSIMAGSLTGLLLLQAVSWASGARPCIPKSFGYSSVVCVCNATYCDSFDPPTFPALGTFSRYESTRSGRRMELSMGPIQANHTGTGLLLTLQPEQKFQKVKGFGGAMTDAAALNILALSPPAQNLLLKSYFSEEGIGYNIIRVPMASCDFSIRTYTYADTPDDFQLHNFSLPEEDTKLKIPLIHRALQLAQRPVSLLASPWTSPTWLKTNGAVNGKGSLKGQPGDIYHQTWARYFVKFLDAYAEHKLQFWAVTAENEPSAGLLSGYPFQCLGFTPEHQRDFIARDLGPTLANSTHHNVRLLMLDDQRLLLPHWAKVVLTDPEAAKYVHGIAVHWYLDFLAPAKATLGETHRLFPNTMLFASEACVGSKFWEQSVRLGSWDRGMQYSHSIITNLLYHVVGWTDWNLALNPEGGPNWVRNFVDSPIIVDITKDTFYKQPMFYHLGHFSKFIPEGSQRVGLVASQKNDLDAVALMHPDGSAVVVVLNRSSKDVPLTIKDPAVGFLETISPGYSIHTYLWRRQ
SMILES,tested on,test,system,conditions,how to read,quantity,value
COC1OC(C)C(OC2OC(C)C(OS(=O)(=O)O)C(OC3OC(C)C(OS(=O)(=O)O)C(OS(=O)(=O)O)C3OS(=O)(=O)O)C2OS(=O)(=O)O)C(OS(=O)(=O)O)C1OS(=O)(=O)O (stereo not drawn),,,human plasma,128 µg/mL,reference: control,APTT prolongation,1.8 fold
COC(=O)c1ccc(CN2CCCC(CCC(=O)NCc3ccc(C)o3)C2)cc1 (stereo not drawn),Trypanosoma cruzi,"reporter mRNA translation, inhibitor, measured: capped polyadenylated Renilla luciferase mRNA",cell-free extract,concentration not given,reference: control RNA,relative translation,104%
COCCOCCOCCNC(=O)Cc1cc(CC(=O)N[C@H]2C[C@H]3C(=O)Nc4cc(OCCOCCOCCOC)cc(n4)C(=O)N4CCC[C@H]4C(=O)Nc4cc(OCCOCCOCCOC)cc(n4)C(=O)N4CCC[C@H]4C(=O)Nc4cc(OCCOCCOCCOC)cc(n4)C(=O)N3C2)cc(CC(=O)N[C@H]2C[C@H]3C(=O)Nc4cc(OCCOCCOCCOC)cc(n4)C(=O)N4CCC[C@H]4C(=O)Nc4cc(OCCOCCOCCOC)cc(n4)C(=O)N4CCC[C@H]4C(=O)Nc4cc(OCCOCCOCCOC)cc(n4)C(=O)N3C2)c1,,"anion binding, ITC",water/methanol 70 vol% (84.0 mol%),"298 K, together with: sodium sulfate",,ΔG,-6.597 ± 0.0239 kcal/mol
CCC(=O)N[C@@H](C)C(=O)OCC(=O)N[C@@H](C)C(=O)O,,,water,"pH 6, 25 °C",,chain scission rate constant,0.0009 h⁻¹
OC[C@@H]1[C@@H](O)[C@H](O)[C@@H](O)CN1CC(F)(F)CCCOCc1ccc(-c2ccccc2)cc1,GBA1 R534H,"inhibitor, 4MU-β-D-glucopyranoside",,together with: 4MU-β-D-glucopyranoside,,IC50,130 nM
CCCCCc1ccc(S(=O)(=O)N2CC2C(=O)OC)cc1 (stereo not drawn),,,"mouse, Lewis lung carcinoma","intraperitoneal, 15 mg/kg, 16 doses, day 13",,tumour volume,400 mm3
OC[C@@H]1[C@@H](O)[C@H](O)[C@@H](O)CN1CCCCCOCc1cccc(-c2ccccc2)c1,GBA1 R534H,"inhibitor, 4MU-β-D-glucopyranoside",,together with: 4MU-β-D-glucopyranoside,,IC50,300 nM
CC(=O)[O-].O.O.O.O.[Co+2].[O-]c1ccc(Br)cc1C=NCCN1CCOCC1,,hydroxyl radical scavenging,,40 µM,,inhibition,7.82%
O=[N+]([O-])c1cc(Br)cc([N+](=O)[O-])c1NS(=O)(=O)c1ccc(Br)cc1,,"RNA-seq, measured: AT1G02920",Arabidopsis thaliana Col seedlings,dose not given,reference: DMSO,log2 fold change,2.33
O=[N+]([O-])c1cn2c(n1)O[C@@H](COc1ccc(-c3ccc(F)cc3)nc1)CC2,Trypanosoma cruzi,"reporter mRNA translation, inhibitor, measured: capped polyadenylated Renilla luciferase mRNA",cell-free extract,concentration not given,reference: control RNA,relative translation,125%
N[C@@H](CNC(=O)N[C@@H](CS)C(=O)NCC(=O)O)C(=O)O,,,"mouse C57BL/6, Aβ i.c.v. model, hippocampus","intranasal, dose not given",,GFAP immunoreactivity,9.2 ± 1.1 % area
COc1cc(C2NCCc3cc(O)c(O)cc32)cc(OC)c1OC (stereo not drawn),,ferrozine,cell-free,"100 µM, DMSO solvent",,Fe2+ chelation,92.85 ± 0.36%
COc1cc(O)ccc1CCC(c1ccc(O)cc1)c1cc2c(c(C)c1O)OC(c1ccc(O)cc1)CC2 (mixture of isomers),,measured: 7-HDHA,human whole blood,"0.3 µM, together with: Escherichia coli",,amount,41 ± 14 pg/mL blood
COC1CN([C@H]2CC[C@H]([C@@]3(C)Oc4c(Cl)cc(C(=O)NCc5c(SC)cc(C)[nH]c5=O)c(C)c4O3)CC2)C1,,"RNA-seq, measured: HECTD2 mouse homolog","mouse, HT-1376 xenograft, whole blood",dose not given,reference: vehicle,log2 fold change,0.0322
COC1OC(C)C(OS(=O)(=O)O)C(OC2OC(C)C(OS(=O)(=O)O)C(OC3OC(C)C(OS(=O)(=O)O)C(OC4OC(C)C(OS(=O)(=O)O)C(OC5OC(C)C(OS(=O)(=O)O)C(OC6OC(C)C(OS(=O)(=O)O)C(OC7OC(C)C(OS(=O)(=O)O)C(OC8OC(C)C(OS(=O)(=O)O)C(OC9OC(C)C(OS(=O)(=O)O)C(OC%10OC(C)C(OS(=O)(=O)O)C(OC%11OC(C)C(OS(=O)(=O)O)C(OS(=O)(=O)O)C%11O)C%10O)C9O)C8O)C7O)C6O)C5O)C4O)C3O)C2O)C1O (stereo not drawn),,,human plasma,128 µg/mL,reference: control,APTT prolongation,1.4 fold
